Published values of several laboratories.
Values joined by “and” are separate records of one study, mostly repeats; a detail may differ. ± marks the error that the study gave.

Under “log2 fold change”, `Cn1ncc2cc(-c3cncc(Cl)c3N3CCC4(CCNC4=O)CC3)ccc21` is recorded as 2 (LS174T; gene expression, microarray, measured: GBP2 mRNA; concentration not given, 4 h; relative to: untreated cells).
With `CNS(=O)(=O)Nc1nccc(Cc2c(C)c3ccc(Oc4ncccc4F)cc3oc2=O)c1F` the IC50 was over 1 µM (OAW-42; cell viability; 7 days).
With `COc1ccccc1C(=O)NCC(=O)Nc1ccc2[nH]nc(/C=C/c3ccccn3)c2c1` the GI50 was 4.5 µM (Ba/F3 TEL-VEGFR3; cell growth, CCK-8).
`CO[C@@H]1[C@@H](OC(N)=O)[C@@H](O)[C@H](Oc2ccc3c(O)c(NC(=O)c4ccc(O)c(CC=C(C)C)c4)c(=O)oc3c2C)OC1(C)C` gave a colony count of 17.5 (HCT-116 parental; 150 µM, replicate 2).
Under “cellular ROS level”, `O=C(Nc1cc(-c2ccnc3[nH]ccc23)c(Cl)cn1)[C@H]1CCC[C@@H](NC(=O)C(F)(F)F)C1` is recorded as “increased” (JeKo-1 and Mino; CellROX Green; 100 nM, 6 h; relative to: untreated).
`CC(C)C[C@H](NC(=O)[C@@H]1CCCN1C(=O)[C@H](CCCCN)NC(=O)[C@@H](N)CO)C(=O)N1CCC[C@H]1C(=O)N[C@@H](CCC(=O)O)C(=O)N[C@H](C(=O)N[C@H](C(=O)N[C@@H](CC(=O)O)C(=O)N[C@@H](CCC(=O)O)C(=O)N[C@@H](Cc1ccc(O)cc1)C(=O)NCC(=O)NCCOCCOCCOCCOCCOCCOCCOCCOCCOCCOCCOCCOCCC(=O)N[C@@H](CCCCNC(=O)CC[C@H](C(=O)O)N1CCN(CC(=O)O)CCN(CC(=O)O)CC1)C(=O)N1CCN(CCCN(C)c2ccc3nccc(C(=O)NCC(=O)N4CC(F)(F)C[C@H]4C#N)c3c2)CC1)[C@@H](C)O)C(C)C` gave a positive cells of 62.1% (HT-1080 expressing hFAP; binding, flow cytometry; 200 nM).
`CNC(NN=Cc1ccc([N+](=O)[O-])o1)=[S+][Au-][Cl]`: “cell fraction ANV+/PI+” 2.3 ± 0.5% (CAKI-1; annexin V/PI flow cytometry; 10 µM, 72 h).
For `C[C@@H]1Cc2c([nH]c3ccccc23)[C@@H](c2c(F)cc(/C=C/C(=O)O)cc2F)N1C12CC(C1)C2`, “log2 fold change” read -3.42 (MCF7; RNA-seq, measured: GREB1 mRNA; 1 µM, 24 h, E2-induced gene; relative to: DMSO vehicle).
`C=CC(=O)Nc1cccc(Cn2ncc3cnc(Nc4cnn(CCOC)c4)nc32)c1` — result for “percent of control”: 100% (CDC2L2 human; binding, KINOMEscan; 100 nM; lower = stronger binding).
For `COCCCCCNc1nc(NCCCCCCN(C)C)c2cc(NC(=O)/C=C/CN(C)C)ccc2n1`, the viability was 1.07 (MCF7; CellTiter-Glo; 3.125 µM, 48 h, unit not given; relative to: DMSO-treated cells).
`O=C(NCc1cc(F)cc(F)c1)[C@@]1(O)CCN(c2ccc3[nH]ccc3c2)C1=O` has a maximal inhibition of 49% (PDX-derived liver tumour cells; colony formation, inhibitor, soft agar clonogenic; 8-13 days).
`O=C(Nc1ccccc1)c1cccc([C@@H]2C[C@H]2NC2CCC2)c1` (racemic) has a relative growth of 80.3% and 89.9% and 74.7% (SET-2; cell growth, CellTiter-Glo; 10 µM, 7 d; relative to: vehicle).
For `COC1CN([C@H]2CC[C@H]([C@@]3(C)Oc4c(Cl)cc(C(=O)NCc5c(SC)cc(C)[nH]c5=O)c(C)c4O3)CC2)C1`, “log2 fold change” read 7.36 (RNA-seq, measured: NKD2; human, whole blood; dose not given, 24 h; relative to: pretreatment baseline).
`COc1cc(N2CCN(C(=O)C3CCCN3)CC2)ccc1Nc1ncc(Cl)c(Nc2ccccc2P(C)(C)=O)n1` (stereo not shown) — result for “early apoptotic cells”: 3.5% (Ba/F3 EML4-ALK; annexin V flow cytometry; concentration not given, 1 h).
The Imax of `Fc1ccc(Nc2nc(NC3CCCCC3)c3cc(C(F)(F)F)ccc3n2)cc1F` is reported as 0.9% (transfected HEK293 cells; β-arrestin2 recruitment, negative allosteric modulator, BRET; 30 min pre-incubation, β1AR ECL1 chimera, added: isoproterenol 1 µM; relative to: isoproterenol alone).
For `COC(=O)c1cc(NC2=NC(=O)C(=Cc3ccc(N(C)C)cc3)S2)ccc1OC(C)=O`, the fold change was 0.291 (MCF7; measured: GTF2H2C mRNA; 0.81 µM (IC50), 24 h; relative to: DMSO).
For `COc1cc(N2CCN(C(=O)CCOCCNC(=O)[C@@H]3CCCN3)CC2)ccc1Nc1ncc(Cl)c(Nc2ccccc2P(C)(C)=O)n1`, “early apoptotic cells” read 1.83% and 1.6% and 1.73% (H3122; annexin V-FITC/PI flow cytometry; 500 nM, 24 h).
For `CCN(CC)CC(=O)Nc1cccc(-n2cc(-c3ccc4ccc(-c5cn(-c6cccc(NC(=O)CN(CC)CC)c6)nn5)cc4c3)nn2)c1`, the fold regulation was 1 (RCC4; PCR angiogenesis array, measured: COL18A1; 5 x IC50, 2 h, normoxia; relative to: untreated).
`C=CC(=O)N1[C@H](c2ccc3c(c2)OCO3)c2[nH]c3ccccc3c2C[C@@H]1C(=O)NC1CC1`: “mean neuron degeneration” 44.2% (rat DRG neurons; 0.3704 µM, 48 h, added: vincristine 40 nM).
With `COc1ccccc1-c1ccncc1C(=O)Nc1nnc(OCc2ccc(Cl)cc2)s1` the colony count was 6.5 and 12.5 and 12 (MDA-MB-436; 6 µM).
`CCCCCCc1cccc([C@H](O)C[C@H](CO)NC(=O)CCCCCCCCCCBr)c1` has a ceramide level of 18200 pmol/sample and 19100 pmol/sample and 22400 pmol/sample (HeLa; CERT activity, HPLC-MS/MS lipidomics, measured: ceramide 24:1; 1 µM, 24 h, not cell-number normalised).
`O=C(CNC(=O)c1ccc(Cl)c(C(F)(F)F)c1)Nc1ccc2[nH]nc(/C=C/c3ccccn3)c2c1` has a GI50 of 2.9 µM (Ba/F3 TEL-VEGFR3; cell growth, CCK-8).
For `CN1CCCNC(=O)c2cccc(c2)C(=O)NCCCN(C)CCCNc2cccc3c2C(=O)c2cccc(c2C3=O)NCCC1`, “log2 fold change” read -0.799 (SAS; RNA-Seq, measured: WTAP mRNA; 1 µM, 6 h; relative to: untreated cells).
With `COc1cccc(OC)c1-c1cc(C(=O)NC2(C(=O)O)C3CC4CC(C3)CC2C4)nn1-c1ccc(C(=O)N(C)CCOCCOCCN(C)C(=O)[C@H](CCCCNC(=O)[C@H](CC(C)C)NC(=O)C2OC2C(=O)O)NC(=O)CN2CCN(CC(=O)[O-])CCN(CC(=O)[O-])CCN(CC(=O)[O-])CC2)cc1C(C)C.[177Lu+3]` (mixture of isomers) the internalized fraction was 0.95 ± 0.03% (HT-29; concentration not given, 120 min; relative to: added activity).
For `O=C(Nc1ccc(Sc2ccc3c(/C=C/c4ccccn4)n[nH]c3c2)cc1)c1ccco1`, the GI50 was 3.8 µM (Ba/F3 TEL-VEGFR3; cell growth, CCK-8).
`CC(C)c1ccc(N(C)c2ccc3c(c2)OCC[C@H]3CNc2cnccc2C(=O)O)cc1` gave an IC50 of 0.0018 µM (TALL-1; cell growth or viability, ATP luminescence; 7 days).
Under “log2 fold change”, `Cc1ncsc1-c1ccc(C(C)NC(=O)C2CC(O)CN2C(=O)C(NC(=O)CCCCCCCCCCN2CCCC(Nc3ncc(Cl)c(Nc4ccccc4S(=O)(=O)C(C)C)n3)C2)C(C)(C)C)cc1` (stereo not shown) is recorded as -1.25 (22Rv1; RNA-seq, measured: ZNF629 mRNA; concentration not given; relative to: DMSO).
With `Cn1c(=O)n(C2CCC(=O)NC2=O)c2ccc(C3CCN(CC(=O)Nc4cccc(CS(=O)(=O)N5CC[C@H](Nc6cccc(-c7sc(C(=O)O)c(OCC(=O)O)c7Cl)c6)CC5(C)C)c4)CC3)cc21` (stereo partly shown) the pSTAT1 level was 98.2% and 88.6% and 88% and 93.1% and 90% (B16-F10; HTRF, measured: phospho-STAT1 Tyr701; 3.3 µM, added: IFN-γ; relative to: min-max normalised).
With `CCCCCCCCN(CCC(=O)Nc1ccccc1)C(=O)c1ccc[nH]1` the viability was 45 ± 6% (progeroid mouse fibroblasts, Lmna G609G/G609G; MTT; 2 µM, 72 h; relative to: vehicle-treated wild type).
`CCN(C(=O)c1cc(F)ccc1Oc1nncnc1N1CCC2(C1)CN([C@H](CCCN(C)CCOC)C(C)C)C2)C(C)C` has a GI50 of over 10 µM (PLC-PRF-5; cell growth or viability; 7 days).
The necrotic cells of `CCC(=CCc1c(O)cc2c(c1O)C(=O)CC(c1ccc(O)cc1)O2)CC` (stereo not shown) is reported as 1.76 ± 0.05% (HeLa; annexin V/PI; 12 µM, 48 h).

Repeated from above:
`CO[C@@H]1[C@@H](OC(N)=O)[C@@H](O)[C@H](Oc2ccc3c(O)c(NC(=O)c4ccc(O)c(CC=C(C)C)c4)c(=O)oc3c2C)OC1(C)C` gave a colony count of 17.5 (HCT-116 parental; 150 µM, replicate 2).
Under “cellular ROS level”, `O=C(Nc1cc(-c2ccnc3[nH]ccc23)c(Cl)cn1)[C@H]1CCC[C@@H](NC(=O)C(F)(F)F)C1` is recorded as “increased” (JeKo-1 and Mino; CellROX Green; 100 nM, 6 h; relative to: untreated).
